Results collected from several papers.
Each line is one published result; not all experiments were run side by side. Numbers after ± are the reported error.
Target: Mu-type opioid receptor (Oprm1, Rattus norvegicus, UniProt P33535)
Chain of UniProt P33535 (whole entry, looked up): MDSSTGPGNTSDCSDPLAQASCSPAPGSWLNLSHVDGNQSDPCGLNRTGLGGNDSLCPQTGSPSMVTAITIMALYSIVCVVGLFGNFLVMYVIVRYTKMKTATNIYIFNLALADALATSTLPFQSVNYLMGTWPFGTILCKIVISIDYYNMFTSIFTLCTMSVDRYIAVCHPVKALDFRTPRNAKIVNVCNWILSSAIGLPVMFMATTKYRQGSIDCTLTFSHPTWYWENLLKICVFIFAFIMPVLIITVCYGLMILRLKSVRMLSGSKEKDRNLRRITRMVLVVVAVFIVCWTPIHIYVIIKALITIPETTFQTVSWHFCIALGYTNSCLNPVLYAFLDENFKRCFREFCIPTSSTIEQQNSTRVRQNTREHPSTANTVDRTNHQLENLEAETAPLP

`CC(C)C[C@H](NC(=O)[C@H](Cc1cccc2ccccc12)NC(=O)CNC(=O)[C@H](NC(=O)[C@@H](N)Cc1ccc(O)cc1)[C@H](C)O)C(=O)N[C@@H](CO)C(N)=O` gave an EC50 of 31 nM (GTPγS binding, agonist, radiometric; cell membranes).
For `Cc1cc(O)cc(C)c1CC(N)C(=O)NC1CCNc2ccc(CN3CCOCC3)cc21` (centres unmarked), the EC50 was 60 nM (GTPγS binding, agonist, radiometric; cell membranes).
`Cc1cc(O)cc(C)c1CC(N)C(=O)NC1CCNc2c(CCc3ccccc3)cc(Cc3ccccc3)cc21` (centres unmarked) gave an EC50 of 44 nM (GTPγS binding, agonist, radiometric; cell membranes).
`Cc1cc(O)cc(C)c1C[C@H](N)C(=O)N1Cc2ccccc2C[C@H]1CN[C@@H](Cc1ccccc1)C(=O)N[C@@H](Cc1ccccc1)C(N)=O` gave an IC50 of 5.1 ± 3.8 nM (cAMP inhibition, agonist; C6 expressing target; together with: forskolin).
`CCCC[C@@H]1NC(=O)[C@H](Cc2ccccc2)NC(=O)CNC(=O)[C@H](NC(=O)[C@@H](N)Cc2ccc(O)cc2)C(C)(C)SSC(C)(C)[C@H](C(=O)N[C@@H](Cc2c[nH]c3ccccc23)C(=O)NCc2cc(C(F)(F)F)cc(C(F)(F)F)c2)NC(=O)[C@@H]2CCCN2C1=O` gave an EC50 of 140 nM (agonist).
For `CC[C@H](C)[C@H](NC(=O)[C@@H](N)Cc1ccc(O)cc1)C(=O)N[C@@H](Cc1ccccc1)C(=O)N[C@@H](CC(N)=O)C(=O)N[C@@H](CC(C)C)C(=O)O`, the IC50 was 181 ± 2.3e-06 nM (binding; rat brain membranes; together with: [3H]DAMGO).
With `Cc1cc(O)cc(C)c1CC(N)C(=O)NC1CCNc2c(C(=O)Nc3ccccc3)cc(Cc3ccccc3)cc21` (centres unmarked) the EC50 was 1.2 nM (GTPγS binding, agonist, radiometric; cell membranes).
With `Cc1cc(O)cc(C)c1CC(N)C(=O)NC1CCNc2ccc(CN3CCCCCC3)cc21` (centres unmarked) the EC50 was 25 nM (GTPγS binding, agonist, radiometric; cell membranes).
With `COC(=O)N(C)[C@@H](Cc1ccccc1)C(=O)N[C@@H](Cc1ccccc1)C(=O)N[C@@H](CC1CCCCC1)C(=O)N[C@@H](CCCNC(=N)N)C(=O)N[C@@H](CC(C)C)C(=O)N[C@@H](CCCNC(=N)N)C(=O)N[C@@H](CCCNC(=N)N)C(=O)N[C@H](C)C(=O)N[C@@H](CCCNC(=N)N)C(=O)N1CCC[C@H]1C(=O)N[C@@H](CCCCN)C(N)=O` the Ki was 818 nM (ligand displacement, radioligand).
For `CCNC(=O)c1cc(Cc2ccccc2)cc2c1NCCC2NC(=O)C(N)Cc1c(C)cc(O)cc1C` (centres unmarked), the EC50 was 2.1 nM (GTPγS binding, agonist, radiometric; cell membranes).
`Cc1cc(O)cc(C)c1CC(N)C(=O)NC1CCNc2ccc(Cc3ccoc3)cc21` (centres unmarked) has an EC50 of 72 nM (GTPγS binding, agonist, radiometric; cell membranes).

For quick reference, copied from above:
For `CC[C@H](C)[C@H](NC(=O)[C@@H](N)Cc1ccc(O)cc1)C(=O)N[C@@H](Cc1ccccc1)C(=O)N[C@@H](CC(N)=O)C(=O)N[C@@H](CC(C)C)C(=O)O`, the IC50 was 181 ± 2.3e-06 nM (binding; rat brain membranes; together with: [3H]DAMGO).
